Published values collected from several papers.
Protocols differ between the studies behind these lines. Several values in a cell are separate wells, animals, samples, runs or records. ± gives the spread as reported.
Adra1a: Alpha-1A adrenergic receptor (Adra1a, Rattus norvegicus, UniProt P43140)
UniProt P43140, sequence (whole entry, looked up): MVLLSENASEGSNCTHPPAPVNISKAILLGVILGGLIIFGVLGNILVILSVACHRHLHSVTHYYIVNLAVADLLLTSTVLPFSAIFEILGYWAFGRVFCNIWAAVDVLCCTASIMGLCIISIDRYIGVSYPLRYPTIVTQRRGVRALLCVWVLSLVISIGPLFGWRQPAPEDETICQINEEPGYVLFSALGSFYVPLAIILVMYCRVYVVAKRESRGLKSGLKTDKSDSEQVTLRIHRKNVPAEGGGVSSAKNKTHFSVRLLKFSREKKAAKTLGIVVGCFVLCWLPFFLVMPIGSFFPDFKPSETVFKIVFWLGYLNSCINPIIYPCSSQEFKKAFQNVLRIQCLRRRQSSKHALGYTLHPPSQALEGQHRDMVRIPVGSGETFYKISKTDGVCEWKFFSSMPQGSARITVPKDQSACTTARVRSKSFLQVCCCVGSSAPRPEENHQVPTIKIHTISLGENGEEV
uncharacterized protein: uncharacterized protein (Anopheles coluzzii, UniProt A0A6E8VQK1)
UniProt Q62351, sequence (whole entry, looked up): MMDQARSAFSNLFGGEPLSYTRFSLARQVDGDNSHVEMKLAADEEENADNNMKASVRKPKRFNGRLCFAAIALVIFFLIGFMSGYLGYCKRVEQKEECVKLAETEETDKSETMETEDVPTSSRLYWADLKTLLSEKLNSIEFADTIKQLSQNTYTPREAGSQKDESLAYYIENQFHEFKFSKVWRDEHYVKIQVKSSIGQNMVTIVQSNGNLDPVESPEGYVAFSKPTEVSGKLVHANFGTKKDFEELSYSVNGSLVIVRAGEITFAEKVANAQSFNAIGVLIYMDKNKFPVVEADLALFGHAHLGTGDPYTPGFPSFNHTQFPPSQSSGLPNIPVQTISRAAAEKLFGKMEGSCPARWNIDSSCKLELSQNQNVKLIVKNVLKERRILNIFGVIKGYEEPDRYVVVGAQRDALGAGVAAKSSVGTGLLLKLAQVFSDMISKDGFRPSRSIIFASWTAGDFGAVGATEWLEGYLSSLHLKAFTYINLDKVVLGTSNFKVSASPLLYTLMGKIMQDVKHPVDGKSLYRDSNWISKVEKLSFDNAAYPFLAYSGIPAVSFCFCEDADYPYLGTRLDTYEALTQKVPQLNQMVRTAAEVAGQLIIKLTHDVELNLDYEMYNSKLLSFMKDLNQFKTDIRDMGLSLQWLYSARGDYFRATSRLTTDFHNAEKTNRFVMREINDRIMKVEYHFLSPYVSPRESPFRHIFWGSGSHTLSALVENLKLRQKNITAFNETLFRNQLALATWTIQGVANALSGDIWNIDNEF
UniProt H2K887, sequence (whole entry, looked up): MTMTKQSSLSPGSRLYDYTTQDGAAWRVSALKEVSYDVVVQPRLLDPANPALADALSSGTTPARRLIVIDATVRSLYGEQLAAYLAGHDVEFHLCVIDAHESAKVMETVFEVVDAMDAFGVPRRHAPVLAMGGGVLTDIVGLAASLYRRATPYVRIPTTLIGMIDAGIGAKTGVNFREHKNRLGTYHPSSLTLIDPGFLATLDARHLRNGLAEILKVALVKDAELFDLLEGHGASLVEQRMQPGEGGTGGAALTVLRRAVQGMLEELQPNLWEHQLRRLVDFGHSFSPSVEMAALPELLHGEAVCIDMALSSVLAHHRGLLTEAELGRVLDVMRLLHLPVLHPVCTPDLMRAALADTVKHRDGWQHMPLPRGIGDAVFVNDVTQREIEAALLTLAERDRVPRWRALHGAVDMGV
UniProt P15090, sequence (whole entry, looked up): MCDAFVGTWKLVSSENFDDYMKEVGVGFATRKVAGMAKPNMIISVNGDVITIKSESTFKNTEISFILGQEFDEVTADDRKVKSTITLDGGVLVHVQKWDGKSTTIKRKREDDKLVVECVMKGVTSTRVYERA
UniProt P78362, sequence (whole entry, looked up): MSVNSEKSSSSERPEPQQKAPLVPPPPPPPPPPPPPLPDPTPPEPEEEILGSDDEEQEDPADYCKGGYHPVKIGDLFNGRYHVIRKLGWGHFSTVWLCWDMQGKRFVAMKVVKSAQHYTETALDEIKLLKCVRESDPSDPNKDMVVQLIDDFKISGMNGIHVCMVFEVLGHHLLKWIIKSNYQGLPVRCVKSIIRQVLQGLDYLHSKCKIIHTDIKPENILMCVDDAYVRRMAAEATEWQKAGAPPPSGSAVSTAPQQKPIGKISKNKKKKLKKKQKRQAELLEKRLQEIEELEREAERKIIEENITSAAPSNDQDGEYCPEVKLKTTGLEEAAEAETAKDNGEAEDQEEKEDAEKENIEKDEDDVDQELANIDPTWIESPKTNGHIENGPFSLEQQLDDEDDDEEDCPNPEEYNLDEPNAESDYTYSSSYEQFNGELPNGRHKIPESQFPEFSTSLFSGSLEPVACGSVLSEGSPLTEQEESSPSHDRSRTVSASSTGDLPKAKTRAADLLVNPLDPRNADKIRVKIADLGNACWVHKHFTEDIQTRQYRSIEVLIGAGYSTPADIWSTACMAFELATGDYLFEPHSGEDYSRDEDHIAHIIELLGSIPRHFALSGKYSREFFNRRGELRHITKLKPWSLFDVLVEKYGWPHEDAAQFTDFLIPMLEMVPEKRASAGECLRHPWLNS
UniProt P27361, sequence (whole entry, looked up): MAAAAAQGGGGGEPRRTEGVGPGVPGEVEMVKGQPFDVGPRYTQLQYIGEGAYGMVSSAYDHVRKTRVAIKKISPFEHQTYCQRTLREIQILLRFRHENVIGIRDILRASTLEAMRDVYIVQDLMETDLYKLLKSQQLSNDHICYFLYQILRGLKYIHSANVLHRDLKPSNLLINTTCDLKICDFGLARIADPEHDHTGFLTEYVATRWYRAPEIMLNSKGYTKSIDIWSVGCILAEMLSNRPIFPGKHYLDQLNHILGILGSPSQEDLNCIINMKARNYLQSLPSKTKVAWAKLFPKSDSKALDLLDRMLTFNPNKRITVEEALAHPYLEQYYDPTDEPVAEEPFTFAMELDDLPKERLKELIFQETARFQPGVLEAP
UniProt Q6PHR2, sequence (whole entry, looked up): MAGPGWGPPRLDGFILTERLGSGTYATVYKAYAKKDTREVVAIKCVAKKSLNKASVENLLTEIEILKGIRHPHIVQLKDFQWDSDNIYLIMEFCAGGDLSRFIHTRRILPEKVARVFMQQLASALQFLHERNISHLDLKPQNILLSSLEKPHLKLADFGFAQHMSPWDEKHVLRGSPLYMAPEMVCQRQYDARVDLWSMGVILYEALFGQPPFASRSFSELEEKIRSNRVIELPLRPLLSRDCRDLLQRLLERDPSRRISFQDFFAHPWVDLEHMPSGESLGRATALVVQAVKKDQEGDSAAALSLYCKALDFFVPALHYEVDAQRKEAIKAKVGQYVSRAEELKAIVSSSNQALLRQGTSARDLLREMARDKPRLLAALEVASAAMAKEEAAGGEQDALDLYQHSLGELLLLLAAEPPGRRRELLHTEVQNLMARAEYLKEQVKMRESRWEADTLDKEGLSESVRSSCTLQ
UniProt Q16543, sequence (whole entry, looked up): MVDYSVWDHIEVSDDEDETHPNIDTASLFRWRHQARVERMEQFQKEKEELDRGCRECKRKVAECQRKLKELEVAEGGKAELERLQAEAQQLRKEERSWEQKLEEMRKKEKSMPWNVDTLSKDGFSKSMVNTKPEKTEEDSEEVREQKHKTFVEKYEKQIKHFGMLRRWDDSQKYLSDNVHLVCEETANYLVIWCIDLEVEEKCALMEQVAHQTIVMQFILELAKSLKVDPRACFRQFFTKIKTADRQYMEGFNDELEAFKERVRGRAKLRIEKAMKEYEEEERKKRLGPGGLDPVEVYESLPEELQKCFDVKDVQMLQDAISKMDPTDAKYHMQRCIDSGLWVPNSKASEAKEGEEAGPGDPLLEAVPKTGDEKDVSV
UniProt Q14994, sequence (whole entry, looked up): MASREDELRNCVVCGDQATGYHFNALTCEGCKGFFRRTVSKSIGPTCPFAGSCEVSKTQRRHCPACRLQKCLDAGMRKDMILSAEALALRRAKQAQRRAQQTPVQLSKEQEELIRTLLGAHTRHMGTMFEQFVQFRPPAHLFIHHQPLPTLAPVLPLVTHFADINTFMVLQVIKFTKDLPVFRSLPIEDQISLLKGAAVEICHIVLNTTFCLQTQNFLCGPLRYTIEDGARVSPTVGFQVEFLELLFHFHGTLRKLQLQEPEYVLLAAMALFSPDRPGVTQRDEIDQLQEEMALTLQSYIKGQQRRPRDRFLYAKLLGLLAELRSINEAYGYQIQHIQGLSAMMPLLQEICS
UniProt P00942, sequence (whole entry, unmodified, looked up): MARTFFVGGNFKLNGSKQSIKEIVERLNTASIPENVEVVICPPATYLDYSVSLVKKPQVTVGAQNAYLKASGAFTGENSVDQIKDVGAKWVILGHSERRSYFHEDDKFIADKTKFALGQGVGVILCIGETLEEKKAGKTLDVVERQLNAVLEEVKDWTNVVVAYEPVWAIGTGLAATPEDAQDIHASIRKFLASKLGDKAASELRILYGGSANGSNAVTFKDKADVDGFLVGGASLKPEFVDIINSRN
UniProt P02716, sequence (whole entry, unmodified, looked up): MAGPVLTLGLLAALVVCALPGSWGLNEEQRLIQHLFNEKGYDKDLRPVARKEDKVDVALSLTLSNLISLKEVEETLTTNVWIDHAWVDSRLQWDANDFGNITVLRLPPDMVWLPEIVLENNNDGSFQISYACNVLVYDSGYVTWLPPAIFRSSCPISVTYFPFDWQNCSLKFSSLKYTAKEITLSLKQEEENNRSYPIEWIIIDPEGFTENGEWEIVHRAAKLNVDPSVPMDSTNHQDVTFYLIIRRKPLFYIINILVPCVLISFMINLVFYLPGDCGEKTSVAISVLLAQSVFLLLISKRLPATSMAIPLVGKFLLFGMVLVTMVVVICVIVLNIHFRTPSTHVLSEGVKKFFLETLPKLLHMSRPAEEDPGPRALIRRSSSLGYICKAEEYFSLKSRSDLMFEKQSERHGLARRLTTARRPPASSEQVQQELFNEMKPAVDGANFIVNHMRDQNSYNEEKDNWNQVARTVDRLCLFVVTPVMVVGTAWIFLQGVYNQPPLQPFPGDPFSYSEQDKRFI

[2H]c1c([2H])c([C@]2([2H])CCCN2C(=O)C(C)(C)Oc2ccc3cn[nH]c3c2)c([2H])c([2H])c1C([2H])([2H])[2H]  remaining binding (Serine/threonine-protein kinase ULK3 (ULK3, Homo sapiens, UniProt Q6PHR2); KINOMEscan; 1 µM; reference: DMSO control): 86%
C[C@]12CC[C@H]3[C@@H](CCC4=CC(=O)CC[C@@]43C)[C@@H]1CC[C@@H]2C(=O)CO  corticosterone formation rate (Cytochrome P450 11B2, mitochondrial (CYP11B2, Homo sapiens, UniProt P19099); substrate; steady state): 34.3 pmol/min/pmol P450
O=C(Nc1cccnn1)N1CCC(=Cc2cccc(Oc3ccc(C(F)(F)F)cn3)c2)CC1  inhibition (Adra1a; binding; 50 µM, with: [3H]prazosin): 62%
O=P(O)(O)OC[C@H]1C[C@@](O)(CO)[C@@H](O)[C@H](O)[C@@H]1O  apparent Vmax (valA (Streptomyces hygroscopicus, UniProt H2K887); phosphate release; 50 µM): 2.8 ± 0.4 µM/min
O=C(O)Cc1c[nH]cn1  fraction bound (Sodium- and chloride-dependent taurine transporter (SLC6A6, Homo sapiens, UniProt P31641, Y138A); binding, microscale thermophoresis; 43.2 nM, fitted curve; higher = more binding): 0.00025
c1ccc2c(c1)cc1ccc3cccc4ccc2c1c34  EC80 (Aryl hydrocarbon receptor (Ahr, Rattus norvegicus, UniProt P41738); reporter gene, agonist; H4IIE-luc rat hepatoma cells; 0.2 to 50 nM): 3.7 log fmol/well
CC12CCC(CC1)C(C)(C)O2  product formation rate (1,8-cineole 2-endo-monooxygenase (cinA, Citrobacter braakii, UniProt Q8VQF6, N242A); substrate, GC-MS; 0 to 2 min, N242A enzyme variant): 29 ± 3 min⁻¹
O=C(c1ccc(Cl)cc1)N1CCN2C(=O)N(OC(=O)N3CCOc4ccccc43)C(=O)C2C1 (stereo not drawn)  median ratio (Complement C1r subcomponent-like protein (C1RL, Homo sapiens, UniProt Q9NZP8); enzyme activity, inhibitor, MS-based ABPP; SW-620 conditioned medium; 10 µM, 1 h, 37 °C; reference: compound over DMSO, lower = stronger inhibition): 1.21
O=C([O-])c1ccccc1-c1c2cc(Br)c(=O)cc-2oc2[c]([Hg+])c([O-])c(Br)cc12.[Na+].[Na+].[OH-]  remaining activity (DNA cross-link repair 1A protein (DCLRE1A, Homo sapiens, UniProt Q6PJP8); exonuclease activity, inhibitor, fluorescence HTS; 10 µM, 80 min, with: 8 nM 5P-FQ substrate; reference: high and low controls): 16.3%
COc1ccc(N2C(=O)N(c3c(C)cccc3Cl)Cc3cnc(Nc4ccc(C5CCN(C)CC5)cc4OC)nc32)nc1  inhibition (Citron Rho-interacting kinase (CIT, Homo sapiens, UniProt O14578); kinase activity, inhibitor; 0.5 µM, kinase CRIK): 2.19%
NCCc1c[nH]c2ccc(O)cc12  Km (AANAT1 Hippopotamus amphibius; substrate, DTNB colorimetric; with: acetyl-CoA): 350 ± 110 µM
C[C@@H](O)[C@H](NC(=O)c1ccc(-c2ccccc2)cc1)C(=O)NO  -TΔS of binding (UDP-3-O-acyl-N-acetylglucosamine deacetylase (Pseudomonas aeruginosa, UniProt P47205, C40S); ITC; concentration not given, 298 K): -4.32 kcal/mol
C/C=C1\C(=O)C[C@H]2[C@@H]3CCC4=CC(=O)CC[C@]4(C)[C@H]3CC[C@]12C  activity (Nuclear receptor subfamily 1 group I member 3 (Homo sapiens, UniProt Q14994); concentration not given): inactive
CC1(C)C(C=C(Cl)Cl)C1C(=O)OCc1cccc(Oc2ccccc2)c1 (stereo not drawn)  remaining activity (uncharacterized protein; enzyme activity, inhibitor; Sf9 cell homogenate; 24.7 µM, 0.1667 h, with: α-naphthyl acetate substrate; reference: no inhibitor): 96.7%
C#CCCCCNC(=O)CI  reactivity ratio (3-ketoacyl-CoA thiolase, mitochondrial (Homo sapiens, UniProt P42765); mass spectrometry profiling; Ramos cell lysate; 100 µM over 10 µM, UniProt P42765; reference: high over low concentration): 1.66
c1cncc([C@@H]2CCCN2)c1  koff (Chrnd/Chrna1/Chrne (Mus musculus, UniProt P02716+P04756+P20782, G173K/S470W); single-channel kinetics; K chain side site): 618 s⁻¹
Oc1ccc(/C=C/c2cc(O)cc(O)c2)cc1  binding stoichiometry N (O-methyltransferase (Sorghum bicolor, UniProt A0A1B6PFV1, W279A); isothermal titration calorimetry; concentration not given, SFG+): 0.97 ± 0.019 sites
Nc1ncnc2c1ncn2[C@@H]1O[C@H](COP(=O)(O)O)[C@@H](O)[C@H]1O  fluorescence ratio F+/F- (matB (Rhodopseudomonas palustris, UniProt Q6ND88, C106A/K488A/Q457C/R286C); binding, intrinsic fluorescence; 250 µM, 1 µM matB, 10 mM MgCl2): 1.15
Clc1cc2c(cc1Cl)Oc1cc(Cl)c(Cl)cc1O2  maximal fold induction (Uncharacterized protein (Takifugu rubripes, UniProt Q4JHL6); reporter gene, agonist, dual-luciferase; COS-7; 24 h; reference: top over bottom): 2.93 ± 0.19
CC(CCn1ccc(-c2ccc(-c3cn(CC4CC4)nn3)cc2)cc1=O)(C(=O)NO)S(C)(=O)=O (stereo not drawn)  residence time (UDP-3-O-acyl-N-acetylglucosamine deacetylase (Pseudomonas aeruginosa, UniProt P47205); fluorescence; 37 °C): 67 min and 66.9 min
O=C(O)CCC(=O)C(=O)O  apparent kcat (Hypoxia-inducible factor 1-alpha inhibitor (HIF1AN, Homo sapiens, UniProt Q9NWT6, Q147A); cosubstrate; pH 7.00, 37.0 °C, mutant Q147A, with: CTAD peptide 100 µM, cosubstrate 217 µM): 0.317 ± 0.15 s⁻¹
O=C(O)COP(=O)(O)O  Ki ratio (TPI1 (Saccharomyces cerevisiae, UniProt P00942, Y208A); enzyme activity, competitive inhibitor, GPDH/NADH-coupled; pH 5.7, 25 °C, ionic strength 0.1 NaCl, with: glyceraldehyde 3-phosphate substrate; reference: mutant over wild type): 64
C[C@@H](O)[C@H](NC(=O)[C@H](Cc1ccccc1)NC(=O)[C@H](Cc1ccccc1)NC(=O)[C@H](CC(=O)O)NC(=O)[C@H](CC(=O)O)NC(=O)[C@H](Cc1c[nH]c2ccccc12)NC(=O)[C@H](CO)NC(=O)[C@@H](N)CCCCN)C(=O)N[C@@H](CCCNC(=N)N)C(=O)O  koff (Epithelial sodium channel subunit gamma (Homo sapiens, UniProt P51170); binding, bio-layer interferometry): 0.166 s⁻¹
Nc1nc2c(ncn2[C@@H]2O[C@@H]3COP(=O)(O)O[C@H]4[C@@H](O)[C@H](n5cnc6c(=O)[nH]c(N)nc65)O[C@@H]4COP(=O)(O)O[C@H]3[C@H]2O)c(=O)[nH]1  binding entropy (ΔS) (Cell cycle histidine kinase CckA, cytoplasmic region (Caulobacter vibrioides, UniProt Q9X688); isothermal titration calorimetry; concentration not given, with: ADP 5 mM): 43.9 cal/mol/deg
CN1CCN(c2cc(-c3ccncc3)c(-c3ccc4ccccc4c3)nn2)CC1  activation (Sphingosine 1-phosphate receptor 4 (S1PR4, Homo sapiens, UniProt O95977); agonist, FLIPR; 12.5 µM): 1.9%
CCCCNC(=O)OCC#CI  fold change (Fatty acid-binding protein, adipocyte (FABP4, Homo sapiens, UniProt P15090); binding, affinity selection mass spectrometry; 100 nM, pooled screen; reference: other proteins): 18.4
COC(=O)[C@@]1(O)C[C@H]2O[C@]1(C)n1c3ccccc3c3c4c(c5c6ccccc6n2c5c31)C(=O)NC4  remaining activity (Mitogen-activated protein kinase 3 (MAPK3, Homo sapiens, UniProt P27361); ADP-Glo; 5.92 µM, with: substrate MBP): 112%
O=C(Cc1cccs1)N[C@@H]1C(=O)N2C(C(=O)O)=C(/C=C/c3ccc([N+](=O)[O-])cc3[N+](=O)[O-])CS[C@H]12  Km (Metallo-beta-lactamase type 2 (blaNDM-1, Klebsiella pneumoniae, UniProt C7C422, C208H); hydrolysis, substrate): > 20 µM
CC[C@@H](C)[C@@H](NC(=O)[C@@H](Cc1ccc(O)cc1)NC(=O)[C@H]1CCCN1C(=O)[C@@H](CCCNC(=N)N)NC(=O)[C@H](N)Cc1c[nH]cn1)C(=O)N[C@H](C)C(=O)N[C@H](Cc1c[nH]cn1)C(=O)N[C@H](CCCNC(=N)N)C(=O)N[C@H](CCCCNC(=O)c1cccc(S(=O)(=O)F)c1)C(=O)N[C@H](Cc1ccc(O)cc1)C(=O)N[C@H](CO)C(=O)N[C@H](Cc1ccccc1)C(N)=O  surface expression (Transferrin receptor protein 1 (Tfrc, Mus musculus, UniProt Q62351); flow cytometry; DC2.4; 6 h, pH 7.4, unit not given; reference: 0 h): 0.724 and 0.727
C[C@H]1CN(c2n[nH]c3nc(N[C@H]4CC[C@H](NS(=O)(=O)CCC(F)(F)F)CC4)ncc23)CCO1  relative abundance (Hsp90 co-chaperone Cdc37 (CDC37, Homo sapiens, UniProt Q16543); inhibitor, Kinobeads competition profiling; 0.16 µM; reference: vehicle): 1
COc1cc(Nc2ncc(F)c(Nc3ccc4c(n3)NC(=O)C(C)(C)O4)n2)cc(OC)c1OC  inhibition (SRSF protein kinase 2 (SRPK2, Homo sapiens, UniProt P78362); KINOMEscan; 10 µM): 0%
COc1ccc([C@@H]2CC(=O)c3c(O)cc(O[C@@H]4O[C@H](CO[C@@H]5O[C@@H](C)[C@H](O)[C@@H](O)[C@H]5O)[C@@H](O)[C@H](O)[C@H]4O)cc3O2)cc1O  in vitro therapeutic index (Superoxide dismutase [Cu-Zn], fully metallated (SOD1, Homo sapiens, UniProt P00441); enzyme activity, XTT): > 5
CN(C(=O)n1cnc(-c2ccc[n+]([O-])c2)c1)C1CCCCC1  inhibition (IP3 receptor, rat; binding; 10 µM, with: [3H]IP3): 10%
COc1cc(N)c(Cl)cc1C(=O)NC1CN2CCC1CC2 (stereo not drawn)  log2 fold change (Lysophosphatidic acid receptor 4 (LPAR4, Homo sapiens, UniProt Q99677); β-arrestin recruitment, TANGO luminescence, refers to: GPR23; concentration not given; reference: basal luminescence): -0.029
O=C(Nc1cnccc1Cl)N1CCN(Cc2ccc3c(c2)OC(F)(F)O3)CC1  inhibition (Adra1a; binding; 50 µM, with: [3H]prazosin): -10%
CC1(C)[C@H](C(=O)O[C@H](C#N)c2cccc(Oc3ccccc3)c2)[C@@H]1C=C(Br)Br  remaining activity (uncharacterized protein; enzyme activity, inhibitor; Sf9 cell homogenate; 0.004545 µM, 0.1667 h, with: α-naphthyl acetate substrate; reference: no inhibitor): 100%

Repeated from above:
COc1ccc([C@@H]2CC(=O)c3c(O)cc(O[C@@H]4O[C@H](CO[C@@H]5O[C@@H](C)[C@H](O)[C@@H](O)[C@H]5O)[C@@H](O)[C@H](O)[C@H]4O)cc3O2)cc1O  in vitro therapeutic index (Superoxide dismutase [Cu-Zn], fully metallated (SOD1, Homo sapiens, UniProt P00441); enzyme activity, XTT): > 5
O=P(O)(O)OC[C@H]1C[C@@](O)(CO)[C@@H](O)[C@H](O)[C@@H]1O  apparent Vmax (valA (Streptomyces hygroscopicus, UniProt H2K887); phosphate release; 50 µM): 2.8 ± 0.4 µM/min
